Results of several laboratories.
Lines come from different studies, so protocols differ. ± gives the spread as reported.

Structure (SMILES) = CSCOC1C(=O)C2(C)C(OCSC)CC3OCC3(OC(C)=O)C2C(OC(=O)c2ccccc2)C2(O)CC(OC(=O)C(O)C(C=C(C)C)NC(=O)OC(C)(C)C)C(C)=C1C2(C)C (centres unmarked); system = male Sprague-Dawley rat, plasma; conditions = intravenous, 2 mg/kg; quantity = AUC(0-t); value = 188 ng·h/mL
Structure (SMILES) = Cn1c(=O)oc2ccc(-c3ccc(CC(C#N)NC(=O)C4CNCCCO4)c(F)c3)cc21 (centres unmarked); test = measured: blood triglycerides increased; system = human volunteers; conditions = oral, 40 mg, single ascending dose fed; quantity = treatment-related adverse event incidence; value = 0%
Structure (SMILES) = CCCCN1C(=O)c2cccc3c(NCCCCCCCCN4CCOCC4)ccc(c23)C1=O; system = aqueous medium; conditions = pH 6; quantity = average fluorescence lifetime; value = 4.1 ns
Structure (SMILES) = COc1cc(NC(C)=O)c2c(c1O)-c1c(OC)c(OC)cc3c1C(C2)N(C)CC3 (centres unmarked); system = rat heart homogenate; conditions = 0.5 µg/mL, 4 h, room temperature, short-term storage; quantity = remaining compound; value = 95.8 ± 2.6%
Structure (SMILES) = C#CC(C)NC(=O)C(CC(C)(C)F)NC(c1ccc(-c2ccc(S(C)(=O)=O)cc2)cc1)C(F)(F)F (centres unmarked); test = LC-MS UV trace; system = aqueous buffer; conditions = concentration not given, 23 h, pH 7.5, 37 °C, with: cysteine 10 mM; quantity = cysteine adduct formation; value = < 1%
Structure (SMILES) = CCCC[C@H](NC(=O)CNC(=O)CNC(=O)CN1CCN(CC(=O)O)CCN(CC(=O)O)CC1)C(=O)N[C@H]1CC(=O)NCCCC[C@@H](C(N)=O)NC(=O)[C@H](Cc2c[nH]c3ccccc23)NC(=O)[C@H](CCCNC(=N)N)NC(=O)[C@@H](Cc2ccccc2)NC(=O)[C@H](Cc2c[nH]cn2)NC1=O [copper-64 labelled]; system = female C57 mouse, B16/F1 melanoma; conditions = intravenous, 0.037 MBq, 4 h; how to read = baseline: tumour over muscle; quantity = uptake ratio; value = 35.3
Structure (SMILES) = [2H]C([2H])([2H])NC(=O)c1ccc(N2C(=S)N(c3ccc(C#N)c(C(F)(F)F)c3)C(=O)C2(C)C)cc1F; system = male human, plasma; conditions = oral, 40 mg, single dose, fasted; quantity = Vd/F; value = 53.8 L
Structure (SMILES) = CCCCC/C=C/C=C/C(=O)NCC(C)C; system = processed rat plasma; conditions = 250 ng/mL, 4 h, 20 °C, autosampler stability medium QC; how to read = baseline: nominal concentration; quantity = relative error; value = -1.6%
Structure (SMILES) = CC(=O)[CH](C(C)=O)[Pt-2]1([S+](C)C)[O]C(C)=CC(C)=[O+]1 (centres unmarked); test = atomic absorption spectroscopy; system = rat; conditions = 48 h; how to read = baseline: dose; quantity = Pt eliminated; value = 8%
Structure (SMILES) = NC[C@@H](C(=O)Nc1ccc(-c2cn[nH]c2)cc1)c1ccccc1; test = OECD 405 eye irritation; system = New Zealand White rabbit, eye; conditions = topical, 0.1%, 49 h (day 3), scale 0 to 4; how to read = direction not given; quantity = cornea score; value = 0
Structure (SMILES) = Cc1ccc(OCC(=O)O)cc1; system = Sprague-Dawley rat Crl:CD(SD), male, plasma; conditions = oral, 30 mg/kg/day of parent drug, day 90, 90-day repeated dosing; quantity = Tmax; value = 1 h
Structure (SMILES) = COC1C=COC2(C)Oc3c(C)c(O)c4c(c3C2=O)C2=NC3(CCN(CC(C)C)CC3)NC2=C(NC(=O)C(C)=CC=CC(C)C(O)C(C)C(O)C(C)C(OC(=O)c2cncnc2)C1C)C4=O (centres unmarked); system = CD-1 mouse female, plasma; conditions = oral, 10 mg/kg; quantity = fAUC/MIC ratio; value = 96
Structure (SMILES) = CC(C)c1cnc(-c2cc(Cl)ccc2F)cc1Nc1ccncc1C(=O)NC(CO)CO; test = measured: anaemia; system = human patients; conditions = oral, dose not given, grade 2; quantity = patients with related SAE; value = 0%
Structure (SMILES) = COCCN(CC(N)=O)C(=O)CN(CCOC)C(=O)CN(CCOC)C(=O)CN(CCOC)C(=O)CN(CCOC)C(=O)CN(CCOC)C(=O)CN(CCOC)C(=O)CN(CCCCC(N)C(=O)O)C(=O)CN(CCOC)C(=O)CN(CCOC)C(=O)CN(CCOC)C(=O)CN(CCOC)C(=O)CN(CCOC)C(=O)CN(CCOC)C(=O)C(Cc1ccccc1)NC(C)=O (centres unmarked); test = potentiometric titration with KOH; system = 100 x 1 mM KCl; quantity = pKa of COOH group; value = 3.1
Structure (SMILES) = CN1CCC[C@]1(C)/C=C/S(=O)(=O)NC(=O)Nc1c2c(cc3c1CCC3)CCC2; system = human, plasma; conditions = oral, 400 mg, single dose, healthy volunteers; quantity = half-life; value = 5.7 h
Structure (SMILES) = N=C(N)NCCC[C@H](NC(=O)CON=C[C@H](F)[C@@H](O)[C@H](O)[C@H](O)CO)C(=O)NCC(=O)N[C@@H](CC(=O)O)C(=O)O [fluorine-18 labelled]; system = nude mice, U-87 MG xenograft; conditions = intravenous, 0.5 h; how to read = baseline: tumour over kidney; quantity = tissue ratio; value = 0.49 ± 0.14
Structure (SMILES) = CC(C)(O)c1ncc([S@](N)(=O)=NC(=O)Nc2c3c(cc4c2CCC4)CCC3)s1; system = human, plasma; conditions = oral, 10 mg, single dose, fasted, healthy volunteers; quantity = AUC(0-t); value = 9440 ng·h/mL
Structure (SMILES) = CC(C)[C@H](NC(=O)CNC(=O)[C@H](CCC(N)=O)NC(=O)[C@H](C)N)C(=O)O; system = healthy volunteers, LPS endotoxaemia, plasma; conditions = intravenous, 90 mg/kg/h, 2 h infusion, geometric mean, with: LPS 2 ng/kg; quantity = volume of distribution; value = 2.2 L/kg
Structure (SMILES) = [O-]c1cccc(-c2cccc([O-])n2)n1.[Ru+2].c1cnc2c(c1)ccc1cccnc12.c1cnc2c(c1)ccc1cccnc12; test = shake flask; system = octanol/buffer; quantity = logP of basic form; value = 1.7
Structure (SMILES) = CC(=O)N[C@H](CSSC[C@H](N)C(=O)O)C(=O)N[C@H](C)C(=O)N[C@H](CCCNC(=N)N)C(=O)N[C@H](CCCNC(=N)N)C(=O)N[C@H](CCCNC(=N)N)C(=O)N[C@H](C)C(=O)N[C@H](CCCNC(=N)N)C(N)=O; system = male human, plasma; conditions = intravenous, 5 mg, single dose, healthy volunteers; quantity = Cmax; value = 273 ng/mL
Structure (SMILES) = COC(=O)c1ccc(-c2cn(Cc3cc(Cl)ccc3O[11CH3])nn2)cc1; test = PET, 1TCM; system = rhesus macaque, cerebellum; conditions = dose not given; quantity = distribution volume VT; value = 0.943 mL/cm³
Structure (SMILES) = CC(C)[C@H](NC(=O)[C@@H]1CCCN1C(=O)[C@H](CCCNC(=N)N)NC(=O)[C@H](CS)NC(=O)[C@H](Cc1c[nH]c2ccccc12)NC(=O)[C@H](CCCNC(=N)N)NC(=O)[C@@H](Cc1ccccc1)NC(=O)[C@H](Cc1c[nH]cn1)NC(=O)[C@H](CCC(=O)O)NC(=O)[C@H](CS)NC(=O)[C@H](CS)NC(=O)[C@@H]1CC(=O)N[C@@H](CCCNC(=N)N)C(=O)NCC(=O)N[C@@H](CC(=O)O)C(=O)N[C@H](Cc2ccc(O)cc2)C(=O)N1)C(N)=O [technetium-99m labelled]; system = C57 mice B16/F1 melanoma female, urine; conditions = iv, 0.037 MBq, 4 h; quantity = excretion; value = 85.9 ± 2.09%
Structure (SMILES) = N=C(N)NCCC[C@H](NC(=O)COC(=O)[C@H](Cc1ccccc1)NC(=O)OCC1c2ccccc2-c2ccccc21)C(=O)NCC(=O)N[C@@H](CC(=O)O)C(=O)O; test = HPLC; system = hydrogel by solvent exchange; conditions = 37 °C; quantity = linear degradation phase duration; value = ~50 days
Structure (SMILES) = CN(C)Cc1ccc([C@H]2C[C@@]3(C)[C@@H](CC[C@@]3(O)C(F)(F)C(F)(F)F)[C@@H]3CCC4=CC(=O)CCC4=C32)cc1; system = human liver microsomes; conditions = 100 % absorption assumed; quantity = maximal oral bioavailability; value = 98%
Structure (SMILES) = C=C(c1ncc(C(=O)O)cn1)c1cc2c(cc1C)C(C)(C)CCC2(C)C; system = Sprague-Dawley rat, male; conditions = oral, 100 mg/kg, 3 h, sesame oil vehicle; quantity = blood cholesterol; value = 85 ± 12.9 mg/dL
Structure (SMILES) = COCCOCCOCCOCCOCCOCCOCCNC(=O)CCC1(CCC(=O)NCCOCCOCCOCCOCCOCCOCCOC)c2ccccc2-c2ccc(-c3sc(-c4c5c(c(-c6sc(-c7ccc8c(c7)C(CCC(=O)NCCOCCOCCOCCOCCOCCOCCOC)(CCC(=O)NCCOCCOCCOCCOCCOCCOCCOC)c7ccccc7-8)c7c6OCCO7)c6nsnc46)N=S=N5)c4c3OCCO4)cc21; test = NIR-II imaging; system = KM mouse, female; conditions = iv, dose not given, 5 to 240 min; quantity = maximum liver to leg ratio; value = ~10
Structure (SMILES) = CCCC[C@@H]1NC(=O)[C@@H](NC(=O)[C@H](CCC(=O)O)NC(=O)CNC(=O)CN2CCN(CC(=O)O)CCN(CC(=O)O)CCN(CC(=O)O)CC2)CCCCNC(=O)C[C@@H](C(N)=O)NC(=O)[C@H](C(C)C)NC(=O)[C@@H]2CCCN2C(=O)[C@H](CCCNC(=N)N)NC(=O)CNC(=O)[C@H](Cc2c[nH]c3ccccc23)NC(=O)[C@H](CCCNC(=N)N)NC(=O)[C@@H](Cc2ccccc2)NC(=O)[C@H](Cc2c[nH]cn2)NC(=O)[C@H](CCC(=O)O)NC1=O [gallium-67 labelled]; system = normal C57 mice, muscle; conditions = intravenous, 0.037 MBq/mouse, 2 h; quantity = tissue uptake; value = 0.1 ± 0.05 %ID/g
Structure (SMILES) = COCC1CN(C2CCN(c3cc(OC)c(Nc4ncc(Br)c(Nc5ccc6c(c5P(C)(C)=O)OCCO6)n4)cc3C)CC2)C1; system = human; conditions = oral, dose not given, sample A patients, any grade; quantity = patients with increased AST; value = 33.3%
Structure (SMILES) = C[C@H](Oc1cc(-c2cnn(C3CCN(CC[18F])CC3)c2)cnc1N)c1c(Cl)ccc(F)c1Cl; test = PET imaging; system = nude mouse, muscle; conditions = iv, 60 min post injection; quantity = tracer uptake; value = 1.2 ± 0.5 %ID/cc
Structure (SMILES) = CC(C)[C@H](NC(=O)CNC(=O)[C@H](CCC(N)=O)NC(=O)[C@H](C)N)C(=O)O; test = LC-MS/MS; system = human, male, plasma; conditions = intravenous, 20 mg/kg three times daily, day 2, first dose, 10 min infusion, geometric mean; quantity = volume of distribution; value = 10 L/kg
Structure (SMILES) = CC(O)c1cc(Cl)ccc1Cn1c(=S)[nH]c(=O)c2[nH]ccc21 (centres unmarked); system = Sprague-Dawley rat, female, plasma; conditions = oral, 125 mg/kg/day; how to read = baseline: rat over human 15 mg; quantity = exposure ratio; value = 1.6
Structure (SMILES) = C[C@@H](N)C1CCN(S(=O)(=O)c2cccc3cnccc23)CC1; system = mouse, plasma; conditions = intraperitoneal, 10 mg/kg; quantity = detectable duration; value = ≤ 4 h

Repeated from above:
Structure (SMILES) = CCCC[C@H](NC(=O)CNC(=O)CNC(=O)CN1CCN(CC(=O)O)CCN(CC(=O)O)CC1)C(=O)N[C@H]1CC(=O)NCCCC[C@@H](C(N)=O)NC(=O)[C@H](Cc2c[nH]c3ccccc23)NC(=O)[C@H](CCCNC(=N)N)NC(=O)[C@@H](Cc2ccccc2)NC(=O)[C@H](Cc2c[nH]cn2)NC1=O [copper-64 labelled]; system = female C57 mouse, B16/F1 melanoma; conditions = intravenous, 0.037 MBq, 4 h; how to read = baseline: tumour over muscle; quantity = uptake ratio; value = 35.3
Structure (SMILES) = Cc1ccc(OCC(=O)O)cc1; system = Sprague-Dawley rat Crl:CD(SD), male, plasma; conditions = oral, 30 mg/kg/day of parent drug, day 90, 90-day repeated dosing; quantity = Tmax; value = 1 h
Structure (SMILES) = CC(O)c1cc(Cl)ccc1Cn1c(=S)[nH]c(=O)c2[nH]ccc21 (centres unmarked); system = Sprague-Dawley rat, female, plasma; conditions = oral, 125 mg/kg/day; how to read = baseline: rat over human 15 mg; quantity = exposure ratio; value = 1.6
Structure (SMILES) = CC(C)[C@H](NC(=O)[C@@H]1CCCN1C(=O)[C@H](CCCNC(=N)N)NC(=O)[C@H](CS)NC(=O)[C@H](Cc1c[nH]c2ccccc12)NC(=O)[C@H](CCCNC(=N)N)NC(=O)[C@@H](Cc1ccccc1)NC(=O)[C@H](Cc1c[nH]cn1)NC(=O)[C@H](CCC(=O)O)NC(=O)[C@H](CS)NC(=O)[C@H](CS)NC(=O)[C@@H]1CC(=O)N[C@@H](CCCNC(=N)N)C(=O)NCC(=O)N[C@@H](CC(=O)O)C(=O)N[C@H](Cc2ccc(O)cc2)C(=O)N1)C(N)=O [technetium-99m labelled]; system = C57 mice B16/F1 melanoma female, urine; conditions = iv, 0.037 MBq, 4 h; quantity = excretion; value = 85.9 ± 2.09%
